Values quoted from earlier work that unrelated publications cite.
Chain of UniProt P35408 (whole entry, looked up): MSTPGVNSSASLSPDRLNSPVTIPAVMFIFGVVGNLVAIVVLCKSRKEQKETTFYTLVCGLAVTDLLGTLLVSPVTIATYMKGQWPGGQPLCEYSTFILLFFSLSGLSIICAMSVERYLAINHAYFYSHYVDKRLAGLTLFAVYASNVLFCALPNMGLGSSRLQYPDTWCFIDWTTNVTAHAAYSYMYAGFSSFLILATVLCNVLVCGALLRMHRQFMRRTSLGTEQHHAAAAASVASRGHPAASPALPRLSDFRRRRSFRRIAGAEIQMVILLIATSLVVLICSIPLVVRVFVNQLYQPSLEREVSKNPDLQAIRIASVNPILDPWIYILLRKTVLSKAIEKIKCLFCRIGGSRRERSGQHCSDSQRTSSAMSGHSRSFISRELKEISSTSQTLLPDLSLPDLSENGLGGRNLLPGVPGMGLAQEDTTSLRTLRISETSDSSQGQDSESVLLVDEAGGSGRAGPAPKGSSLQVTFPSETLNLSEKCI

`O=C(c1cc(Cc2n[nH]c(=O)c3ccccc23)ccc1F)N1CCN(C(=O)C2CC2)CC1` gave an AUC(0-inf) of 14400 ng·h/mL (male; 80 mg/kg).
`medroxyprogesterone`: activity “inactive” (Cryptosporidium parvum; HTS; concentration not given).
For `Cn1ncnc1[C@H]1c2n[nH]c(=O)c3cc(F)cc(c23)N[C@@H]1c1ccc(F)cc1`, the AUC was 148 ng·h/mL (rat; 0.05 mg/kg once daily, day 28).
`O=C(O)/C(=C/c1c(C(=O)O)[nH]c2cc(Cl)cc(Cl)c12)c1ccccc1` has a Hill coefficient of 0.6 (Glutamate receptor ionotropic, NMDA 1 (Grin1, Rattus norvegicus, UniProt P35439); historical reference value).
With `N=C(N)N1CCc2ccccc2C1` the Km was 5.6 µM (CYP2D6; substrate).
`CN(C)C(=O)c1cc2cnc(Nc3ccc(N4CCNCC4)cn3)nc2n1C1CCCC1`: “adverse event incidence” 21.1% (item: asthenia; advanced solid tumour or lymphoma patients; dose not given, continuous dosing; reference: patients).
For `CCCCC[C@H](O)/C=C/[C@H]1[C@H](O)CC(=O)[C@@H]1C/C=C\CCCC(=O)O`, the Hill coefficient was 0.9 (Prostaglandin E2 receptor EP4 subtype (PTGER4, Homo sapiens, UniProt P35408); historical reference value).
`CC/C(=C(\c1ccccc1)c1ccc(OCCN(C)C)cc1)c1ccccc1`: cell proliferation “no effect” (MCF7; concentration not given, with: insulin stimulation).
`CC(C(=O)O)c1ccc(-c2ccccc2)c(F)c1` (stereo not drawn) has a Km of 6 to 42 µM (CYP2C9; substrate).

For quick reference, copied from above:
`CC/C(=C(\c1ccccc1)c1ccc(OCCN(C)C)cc1)c1ccccc1`: cell proliferation “no effect” (MCF7; concentration not given, with: insulin stimulation).
